Assay results pooled from the literature.
Each line is one published result; not all experiments were run side by side. ± marks the error that the study gave.
Sequence of UniProt Q13618 (whole entry, looked up): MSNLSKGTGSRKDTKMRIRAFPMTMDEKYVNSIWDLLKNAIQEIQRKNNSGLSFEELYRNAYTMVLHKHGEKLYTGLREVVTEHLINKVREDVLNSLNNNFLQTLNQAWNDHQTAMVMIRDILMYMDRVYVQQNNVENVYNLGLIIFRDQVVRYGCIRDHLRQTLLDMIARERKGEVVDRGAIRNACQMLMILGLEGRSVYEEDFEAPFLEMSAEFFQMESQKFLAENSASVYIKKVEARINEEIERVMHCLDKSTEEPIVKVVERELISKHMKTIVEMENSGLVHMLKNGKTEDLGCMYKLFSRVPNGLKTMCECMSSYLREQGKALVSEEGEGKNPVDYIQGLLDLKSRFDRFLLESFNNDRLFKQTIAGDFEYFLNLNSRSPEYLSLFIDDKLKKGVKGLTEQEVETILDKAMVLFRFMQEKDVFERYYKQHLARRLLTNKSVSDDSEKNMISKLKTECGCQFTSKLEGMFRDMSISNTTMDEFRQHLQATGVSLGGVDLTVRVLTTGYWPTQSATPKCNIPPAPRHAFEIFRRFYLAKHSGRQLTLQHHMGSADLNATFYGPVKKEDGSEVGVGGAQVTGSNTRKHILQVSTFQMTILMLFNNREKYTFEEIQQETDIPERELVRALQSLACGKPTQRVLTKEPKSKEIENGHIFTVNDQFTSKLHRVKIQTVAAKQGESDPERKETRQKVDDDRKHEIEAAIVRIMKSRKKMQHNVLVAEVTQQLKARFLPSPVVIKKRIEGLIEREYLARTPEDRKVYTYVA
Sequence of UniProt Q920B6 (whole entry, looked up): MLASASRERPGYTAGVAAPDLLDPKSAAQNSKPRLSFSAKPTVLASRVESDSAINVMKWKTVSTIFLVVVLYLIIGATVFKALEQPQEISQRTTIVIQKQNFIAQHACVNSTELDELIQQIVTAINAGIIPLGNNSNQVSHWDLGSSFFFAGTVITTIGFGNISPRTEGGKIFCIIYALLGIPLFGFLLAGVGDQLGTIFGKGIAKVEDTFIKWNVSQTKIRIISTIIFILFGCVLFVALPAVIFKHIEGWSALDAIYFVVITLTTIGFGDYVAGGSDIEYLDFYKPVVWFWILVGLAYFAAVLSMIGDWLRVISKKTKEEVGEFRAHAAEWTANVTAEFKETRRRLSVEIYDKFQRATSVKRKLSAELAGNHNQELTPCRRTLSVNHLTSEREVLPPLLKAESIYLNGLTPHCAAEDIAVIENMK
Sequence of UniProt Q6W5P4 (whole entry, unmodified, looked up): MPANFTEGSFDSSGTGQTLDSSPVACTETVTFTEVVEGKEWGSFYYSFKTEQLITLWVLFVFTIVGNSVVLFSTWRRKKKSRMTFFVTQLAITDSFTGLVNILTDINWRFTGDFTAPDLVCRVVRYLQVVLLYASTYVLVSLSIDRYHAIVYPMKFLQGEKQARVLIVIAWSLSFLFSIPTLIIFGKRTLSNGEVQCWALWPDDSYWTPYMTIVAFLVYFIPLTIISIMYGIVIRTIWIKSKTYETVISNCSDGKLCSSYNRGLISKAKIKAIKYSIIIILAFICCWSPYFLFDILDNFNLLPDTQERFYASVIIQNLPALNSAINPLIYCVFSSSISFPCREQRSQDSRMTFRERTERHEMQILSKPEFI
Sequence of UniProt P52699 (whole entry, looked up): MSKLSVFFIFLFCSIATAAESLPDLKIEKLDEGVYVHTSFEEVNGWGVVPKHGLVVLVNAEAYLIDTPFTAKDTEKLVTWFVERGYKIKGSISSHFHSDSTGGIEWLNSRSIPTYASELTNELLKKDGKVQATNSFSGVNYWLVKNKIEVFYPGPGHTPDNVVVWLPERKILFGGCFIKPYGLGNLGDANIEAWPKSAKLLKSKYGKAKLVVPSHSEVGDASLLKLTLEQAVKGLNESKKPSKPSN
Sequence of UniProt P61073 (whole entry, looked up): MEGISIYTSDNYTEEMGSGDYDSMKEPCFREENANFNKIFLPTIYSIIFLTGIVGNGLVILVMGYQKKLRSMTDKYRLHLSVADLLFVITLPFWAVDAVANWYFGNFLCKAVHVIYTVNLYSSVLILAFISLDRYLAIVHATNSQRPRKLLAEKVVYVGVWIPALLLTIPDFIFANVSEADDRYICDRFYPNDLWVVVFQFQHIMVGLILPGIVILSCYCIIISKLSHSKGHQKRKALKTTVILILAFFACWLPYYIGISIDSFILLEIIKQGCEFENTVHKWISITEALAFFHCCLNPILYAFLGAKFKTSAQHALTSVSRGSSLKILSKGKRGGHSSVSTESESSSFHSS
Sequence of UniProt Q96SW2 (whole entry, looked up): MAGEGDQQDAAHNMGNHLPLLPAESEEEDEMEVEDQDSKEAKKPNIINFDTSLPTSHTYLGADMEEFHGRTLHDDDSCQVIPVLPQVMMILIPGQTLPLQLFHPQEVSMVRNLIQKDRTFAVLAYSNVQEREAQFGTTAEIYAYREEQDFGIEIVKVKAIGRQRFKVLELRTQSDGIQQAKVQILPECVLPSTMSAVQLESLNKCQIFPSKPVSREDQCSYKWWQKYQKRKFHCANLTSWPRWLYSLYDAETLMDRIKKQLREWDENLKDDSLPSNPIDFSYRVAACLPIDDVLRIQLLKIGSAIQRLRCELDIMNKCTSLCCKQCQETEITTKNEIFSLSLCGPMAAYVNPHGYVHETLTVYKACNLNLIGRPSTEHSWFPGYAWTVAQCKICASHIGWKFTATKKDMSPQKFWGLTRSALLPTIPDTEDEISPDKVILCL
Sequence of UniProt P28907 (whole entry, looked up): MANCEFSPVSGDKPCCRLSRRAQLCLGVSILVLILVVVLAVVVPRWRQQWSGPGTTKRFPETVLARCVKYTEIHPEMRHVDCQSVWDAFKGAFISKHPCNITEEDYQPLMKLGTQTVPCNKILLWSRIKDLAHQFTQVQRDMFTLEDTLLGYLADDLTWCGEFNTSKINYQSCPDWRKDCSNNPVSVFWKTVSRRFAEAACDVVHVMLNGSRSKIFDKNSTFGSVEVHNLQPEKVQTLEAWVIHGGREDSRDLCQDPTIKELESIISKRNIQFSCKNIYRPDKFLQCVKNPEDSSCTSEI
Sequence of UniProt P16257 (whole entry, looked up): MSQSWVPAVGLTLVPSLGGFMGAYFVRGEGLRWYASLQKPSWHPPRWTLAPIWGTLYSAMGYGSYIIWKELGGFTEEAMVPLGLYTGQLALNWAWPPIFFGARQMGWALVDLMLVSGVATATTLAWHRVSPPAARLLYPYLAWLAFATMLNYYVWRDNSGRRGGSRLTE
Sequence of UniProt P48729 (whole entry, looked up): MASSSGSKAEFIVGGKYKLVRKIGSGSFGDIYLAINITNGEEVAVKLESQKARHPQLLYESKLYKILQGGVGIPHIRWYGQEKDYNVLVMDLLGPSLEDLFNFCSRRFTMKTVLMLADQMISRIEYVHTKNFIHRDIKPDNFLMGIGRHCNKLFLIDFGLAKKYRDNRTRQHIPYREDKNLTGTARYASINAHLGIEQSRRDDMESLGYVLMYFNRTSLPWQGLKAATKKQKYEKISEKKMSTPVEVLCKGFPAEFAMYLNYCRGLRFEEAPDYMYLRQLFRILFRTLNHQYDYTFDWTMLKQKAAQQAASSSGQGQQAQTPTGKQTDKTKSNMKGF

Structure (SMILES)	target	test	system	setting	scale	quantity	value
CC(=O)[O][Ag]=[c]1n(C)ccn1CC([O-])c1ccccc1.[Na+] (centres unmarked)	ACTA1 (Oryctolagus cuniculus, UniProt P68135)	actin polymerization	–	5 µM	–	time to minimum	~9 min
CCc1ccc2c(C)nc(NC3=NC(C)(C)C=C(C)N3)nc2c1	CD38 (Homo sapiens, UniProt P28907)	cyclase activity, fluorometric	–	50 µM, together with: NGD+ substrate	relative to: untreated	remaining activity	48 ± 7.3%
CCCCCC[N+](CCCCCC)(CCCCCC)CCCCCC	Kcnk2 (Rattus norvegicus, UniProt Q920B6)	ion current, blocker, inside-out patch clamp	Xenopus oocytes	1 µM, pH 5.0, fully open channels, slow block	relative to: original current	remaining current	~50%
O=C(Nc1ccc(F)cc1)c1ccc(CNc2ncccn2)cc1	CXCR4 (Homo sapiens, UniProt P61073)	arrestin recruitment, DiscoverX	–	–	–	IC50	inactive
CC(=O)NCCN(CC(=O)NCCN(CC(=O)NCCN(CC(=O)NCCC(N)=O)C(=O)[C@@H](N)CCCCN)C(=O)[C@@H](N)Cc1ccccc1)C(=O)[C@@H](N)Cc1ccccc1	HIV-1 TAR RNA	–	–	–	–	non-electrostatic TΔS°	-5.69 ± 0.335 kcal/mol
O=c1c(-c2cnn(-c3ccccc3)c2)c(C(F)(F)F)oc2c(O)c(O)ccc12	Cullin-3, with ROC1 (Homo sapiens, UniProt Q13618)	inhibitor	–	up to 150 µM	–	di-ubiquitin synthesis	no inhibition
CC(=O)NCCN(CC(=O)NCCN(CC(=O)NCCN(CC(=O)NCCC(N)=O)C(=O)C[C@@H](N)CCCNC(=N)N)C(=O)C[C@@H](N)Cc1ccccc1)C(=O)C[C@@H](N)Cc1ccccc1	HIV-1 TAR RNA	–	–	25 °C	–	binding free energy ΔG°	-9.01 ± 0.287 kcal/mol
Cc1nn2ccc(-c3ccc4c(c3)CN([C@H]3CCC(=O)NC3=O)C4=O)nc2c1Cl	Cereblon/Casein kinase I alpha (CSNK1A1/CRBN, Homo sapiens, UniProt P48729+Q96SW2)	protein level, degrader, luciferase	MOLT-4	–	–	Dmax	89%
CN(C)c1ccc2c(c1)C(=O)N([C@H](CS)C(=O)O)C2=O	Metallo-beta-lactamase type 2 (Serratia marcescens, UniProt P52699)	–	–	10 µM, together with: 3 equivalents protein, ZnSO4 up to 50 µM	–	fluorescence increase	8.6 fold
N=C(N)NCCC[C@H](NC(=O)[C@H](Cc1ccccc1)NC(=O)[C@@H](N)CO)C(=O)N[C@@H](CC(N)=O)C(=O)NCC(N)=O	NPSR1 (Homo sapiens, UniProt Q6W5P4, N107I)	agonist	CHO-Galpha16	–	relative to: calcium over cAMP	bias factor	2.06
CCc1cc(C)nc2c(CC(=O)N(CC)CC)c(-c3ccc(OCC[18F])cc3)nn12	Tspo (Rattus norvegicus, UniProt P16257)	two-tissue compartment model	rat C6 glioma model, tumor	60 min dynamic PET	–	K1 influx rate constant	2.46 ± 0.55 mL/cm3/min

Repeated from above:
Structure (SMILES)	target	test	system	setting	scale	quantity	value
N=C(N)NCCC[C@H](NC(=O)[C@H](Cc1ccccc1)NC(=O)[C@@H](N)CO)C(=O)N[C@@H](CC(N)=O)C(=O)NCC(N)=O	NPSR1 (Homo sapiens, UniProt Q6W5P4, N107I)	agonist	CHO-Galpha16	–	relative to: calcium over cAMP	bias factor	2.06
